Measured values gathered from unrelated publications.
Compare with care: the assays were run in different laboratories. Several values in a cell are separate wells, animals, samples, runs or records. ± marks the error that the study gave.
ppa: Inorganic pyrophosphatase (ppa, Escherichia coli, UniProt P0A7A9)
Chain of UniProt P0A7A9 (whole entry, looked up): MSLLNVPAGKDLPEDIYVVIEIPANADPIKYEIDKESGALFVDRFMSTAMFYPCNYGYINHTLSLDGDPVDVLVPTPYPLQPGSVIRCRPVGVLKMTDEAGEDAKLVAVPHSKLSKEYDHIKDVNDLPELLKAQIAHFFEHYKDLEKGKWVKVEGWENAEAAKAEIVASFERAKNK
MAP3K21: Mitogen-activated protein kinase kinase kinase 21 (MAP3K21, Homo sapiens, UniProt Q5TCX8)
TDP1: Tyrosyl-DNA phosphodiesterase 1 (TDP1, Homo sapiens, UniProt Q9NUW8)
Chain of UniProt Q9NUW8 (whole entry, looked up): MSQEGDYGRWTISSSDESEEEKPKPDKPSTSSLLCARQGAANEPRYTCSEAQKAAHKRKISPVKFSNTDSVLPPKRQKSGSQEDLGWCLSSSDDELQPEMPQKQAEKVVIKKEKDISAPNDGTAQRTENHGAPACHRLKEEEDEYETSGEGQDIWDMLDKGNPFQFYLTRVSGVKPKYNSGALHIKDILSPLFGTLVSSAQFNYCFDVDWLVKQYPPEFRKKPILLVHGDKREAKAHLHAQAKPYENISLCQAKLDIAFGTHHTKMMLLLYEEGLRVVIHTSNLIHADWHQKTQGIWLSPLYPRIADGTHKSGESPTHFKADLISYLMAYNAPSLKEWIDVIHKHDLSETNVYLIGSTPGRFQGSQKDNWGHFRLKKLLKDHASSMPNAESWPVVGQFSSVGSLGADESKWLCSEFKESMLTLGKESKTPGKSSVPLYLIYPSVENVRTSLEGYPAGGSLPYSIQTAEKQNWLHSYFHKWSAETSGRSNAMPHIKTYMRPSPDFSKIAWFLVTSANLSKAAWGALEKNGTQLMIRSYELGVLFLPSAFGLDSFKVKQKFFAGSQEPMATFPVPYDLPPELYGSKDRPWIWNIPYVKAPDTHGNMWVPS
Uncharacterized protein: Uncharacterized protein (Trypanosoma brucei brucei, UniProt Q386Q8)
CCKAR: Cholecystokinin receptor type A (CCKAR, Homo sapiens, UniProt P32238)
Chain of UniProt P32238 (whole entry, looked up): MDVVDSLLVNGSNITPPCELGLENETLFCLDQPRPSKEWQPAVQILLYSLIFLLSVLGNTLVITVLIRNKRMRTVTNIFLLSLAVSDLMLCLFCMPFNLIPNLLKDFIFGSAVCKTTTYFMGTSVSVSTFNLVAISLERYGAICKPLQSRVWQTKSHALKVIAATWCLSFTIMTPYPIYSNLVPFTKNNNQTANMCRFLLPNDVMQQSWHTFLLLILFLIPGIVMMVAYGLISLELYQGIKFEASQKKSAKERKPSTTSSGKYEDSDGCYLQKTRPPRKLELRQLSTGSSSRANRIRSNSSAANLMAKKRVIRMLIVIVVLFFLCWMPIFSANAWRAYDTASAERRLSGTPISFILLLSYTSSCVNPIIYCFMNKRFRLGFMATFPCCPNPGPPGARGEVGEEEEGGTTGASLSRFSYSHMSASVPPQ
Adra1a: Alpha-1A adrenergic receptor (Adra1a, Rattus norvegicus, UniProt P43140)
Chain of UniProt P43140 (whole entry, looked up): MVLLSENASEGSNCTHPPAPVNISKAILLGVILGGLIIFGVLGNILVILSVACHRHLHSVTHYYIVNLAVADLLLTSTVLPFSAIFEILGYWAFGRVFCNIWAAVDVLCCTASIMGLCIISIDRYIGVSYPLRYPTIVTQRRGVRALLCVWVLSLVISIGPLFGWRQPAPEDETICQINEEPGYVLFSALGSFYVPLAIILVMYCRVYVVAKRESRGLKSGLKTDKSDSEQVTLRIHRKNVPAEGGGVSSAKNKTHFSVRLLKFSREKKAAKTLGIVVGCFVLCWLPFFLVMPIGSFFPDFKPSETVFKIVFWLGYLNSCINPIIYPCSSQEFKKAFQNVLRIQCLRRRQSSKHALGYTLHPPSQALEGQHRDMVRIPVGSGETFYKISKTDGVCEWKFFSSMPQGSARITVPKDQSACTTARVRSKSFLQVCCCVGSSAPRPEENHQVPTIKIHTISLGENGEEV
OfChi-h: Chitinase (OfChi-h, Ostrinia furnacalis, UniProt Q4AE59)
Chain of UniProt Q93009 (whole entry, looked up): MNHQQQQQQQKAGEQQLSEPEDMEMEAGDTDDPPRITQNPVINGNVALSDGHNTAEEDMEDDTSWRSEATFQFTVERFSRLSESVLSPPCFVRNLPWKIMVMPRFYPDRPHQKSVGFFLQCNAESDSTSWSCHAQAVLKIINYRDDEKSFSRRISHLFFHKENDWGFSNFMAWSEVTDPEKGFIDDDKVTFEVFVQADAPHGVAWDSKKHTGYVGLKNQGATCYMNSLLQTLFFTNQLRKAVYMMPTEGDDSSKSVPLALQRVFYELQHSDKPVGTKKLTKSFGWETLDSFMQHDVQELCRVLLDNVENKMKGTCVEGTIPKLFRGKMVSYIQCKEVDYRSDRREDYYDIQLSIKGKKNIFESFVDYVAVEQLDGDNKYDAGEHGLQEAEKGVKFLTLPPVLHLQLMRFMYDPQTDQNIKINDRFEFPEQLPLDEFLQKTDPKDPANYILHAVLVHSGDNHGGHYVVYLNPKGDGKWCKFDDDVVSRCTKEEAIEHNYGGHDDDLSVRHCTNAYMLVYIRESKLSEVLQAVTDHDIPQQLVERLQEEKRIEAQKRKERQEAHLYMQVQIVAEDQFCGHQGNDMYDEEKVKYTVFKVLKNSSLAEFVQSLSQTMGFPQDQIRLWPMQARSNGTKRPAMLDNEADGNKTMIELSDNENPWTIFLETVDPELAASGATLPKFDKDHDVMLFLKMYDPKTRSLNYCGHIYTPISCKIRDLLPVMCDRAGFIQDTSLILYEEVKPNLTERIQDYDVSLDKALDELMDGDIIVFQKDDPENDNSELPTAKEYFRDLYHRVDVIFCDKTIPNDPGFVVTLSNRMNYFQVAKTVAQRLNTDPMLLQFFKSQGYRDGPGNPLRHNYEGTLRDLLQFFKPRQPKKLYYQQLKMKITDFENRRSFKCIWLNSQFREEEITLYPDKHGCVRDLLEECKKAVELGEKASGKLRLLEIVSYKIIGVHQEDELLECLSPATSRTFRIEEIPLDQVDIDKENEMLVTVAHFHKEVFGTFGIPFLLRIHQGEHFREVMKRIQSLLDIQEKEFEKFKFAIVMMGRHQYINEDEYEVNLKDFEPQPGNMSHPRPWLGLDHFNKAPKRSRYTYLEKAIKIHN
Chain of UniProt Q9H9B1 (whole entry, looked up): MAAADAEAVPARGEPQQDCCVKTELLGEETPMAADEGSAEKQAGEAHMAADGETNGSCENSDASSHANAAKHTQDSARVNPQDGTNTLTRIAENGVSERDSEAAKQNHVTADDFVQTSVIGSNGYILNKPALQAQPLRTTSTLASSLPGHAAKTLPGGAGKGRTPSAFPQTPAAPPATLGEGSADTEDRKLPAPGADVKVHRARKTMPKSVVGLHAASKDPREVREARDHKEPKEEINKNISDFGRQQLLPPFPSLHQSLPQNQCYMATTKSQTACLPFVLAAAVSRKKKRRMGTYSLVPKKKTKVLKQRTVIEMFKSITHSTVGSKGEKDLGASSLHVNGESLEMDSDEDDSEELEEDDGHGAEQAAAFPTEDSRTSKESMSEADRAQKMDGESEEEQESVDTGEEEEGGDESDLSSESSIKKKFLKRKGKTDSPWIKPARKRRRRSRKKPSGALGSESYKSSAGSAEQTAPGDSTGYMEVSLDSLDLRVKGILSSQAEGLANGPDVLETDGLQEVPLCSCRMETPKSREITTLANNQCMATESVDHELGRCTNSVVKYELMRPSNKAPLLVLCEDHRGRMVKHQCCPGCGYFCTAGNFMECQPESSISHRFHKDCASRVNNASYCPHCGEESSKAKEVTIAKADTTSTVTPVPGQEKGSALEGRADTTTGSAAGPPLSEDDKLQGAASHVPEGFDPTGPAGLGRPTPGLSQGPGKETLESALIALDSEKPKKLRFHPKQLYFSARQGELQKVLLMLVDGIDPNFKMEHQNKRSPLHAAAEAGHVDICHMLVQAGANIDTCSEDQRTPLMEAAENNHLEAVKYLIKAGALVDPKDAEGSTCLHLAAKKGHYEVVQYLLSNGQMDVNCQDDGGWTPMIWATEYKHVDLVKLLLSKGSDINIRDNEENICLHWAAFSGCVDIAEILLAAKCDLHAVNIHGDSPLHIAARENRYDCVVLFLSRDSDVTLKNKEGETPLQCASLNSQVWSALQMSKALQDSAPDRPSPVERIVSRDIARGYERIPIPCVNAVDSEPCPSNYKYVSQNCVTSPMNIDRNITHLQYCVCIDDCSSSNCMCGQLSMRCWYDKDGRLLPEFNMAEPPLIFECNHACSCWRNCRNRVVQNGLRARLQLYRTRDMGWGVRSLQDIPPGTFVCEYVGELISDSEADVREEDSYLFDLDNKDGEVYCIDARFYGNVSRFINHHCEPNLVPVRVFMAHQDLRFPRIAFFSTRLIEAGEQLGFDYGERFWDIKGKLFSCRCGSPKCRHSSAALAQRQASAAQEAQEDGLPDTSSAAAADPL
Chain of UniProt P43119 (whole entry, looked up): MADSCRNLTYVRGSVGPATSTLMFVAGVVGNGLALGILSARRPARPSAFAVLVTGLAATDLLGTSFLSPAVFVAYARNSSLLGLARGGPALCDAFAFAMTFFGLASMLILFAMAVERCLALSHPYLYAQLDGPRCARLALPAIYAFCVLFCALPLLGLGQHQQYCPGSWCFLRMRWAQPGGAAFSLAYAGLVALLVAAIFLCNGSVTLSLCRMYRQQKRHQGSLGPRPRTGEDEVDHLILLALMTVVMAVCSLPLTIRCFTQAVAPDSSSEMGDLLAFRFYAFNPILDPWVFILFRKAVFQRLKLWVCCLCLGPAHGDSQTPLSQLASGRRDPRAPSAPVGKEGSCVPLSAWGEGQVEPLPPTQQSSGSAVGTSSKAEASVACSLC
Chain of UniProt P47870 (whole entry, looked up): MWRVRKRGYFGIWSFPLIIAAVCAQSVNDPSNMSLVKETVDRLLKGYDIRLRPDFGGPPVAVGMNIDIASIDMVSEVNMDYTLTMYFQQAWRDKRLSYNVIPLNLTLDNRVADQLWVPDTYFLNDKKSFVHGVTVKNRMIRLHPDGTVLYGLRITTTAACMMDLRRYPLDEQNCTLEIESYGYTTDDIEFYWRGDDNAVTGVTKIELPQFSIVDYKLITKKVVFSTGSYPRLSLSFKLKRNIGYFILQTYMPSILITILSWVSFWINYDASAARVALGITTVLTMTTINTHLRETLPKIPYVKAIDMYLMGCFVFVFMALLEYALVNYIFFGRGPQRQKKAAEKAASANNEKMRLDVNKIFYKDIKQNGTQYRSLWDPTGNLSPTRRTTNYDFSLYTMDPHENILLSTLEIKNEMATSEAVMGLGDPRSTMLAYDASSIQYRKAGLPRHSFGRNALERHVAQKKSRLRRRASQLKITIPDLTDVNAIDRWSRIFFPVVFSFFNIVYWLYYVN

Nc1ncc(-c2cc(-c3cnn(CC(F)(F)F)c3)ncc2F)nc1C(=O)NC1CNCC(F)C1 (stereo not shown) — remaining binding (BLK; KINOMEscan; 1 µM; reference: DMSO control): 100%
O=C(CSc1nnc(-c2ccco2)c(-c2ccco2)n1)c1cccs1 — inhibition (ppa; inhibitor, counter-screen, coupling enzyme alone; 30 µM): 8%
COc1ccc(S(=O)(=O)N2CCc3ccccc3C2)cc1N1CCN(C(=O)c2ccc(F)cc2C(F)(F)F)CC1 — inhibition (Catechol O-methyltransferase (COMT, Sus scrofa, UniProt Q99028); enzyme activity, inhibitor; 1 µM): -1.9%
C=CC(=O)Nc1cc(-c2nn(C3CCN(CCNC(=O)[C@H](C)CCC45CC6CC(CC(C6)C4)C5)CC3)c3ncnc(N)c23)ccc1Oc1ccccc1 — inhibition (MAP3K21; inhibitor, KiNativ profiling; biochemical; 2 µM): 0.8%
O=C(O)c1ccc(Nc2c(-c3ccccc3)nc3ccc(CON=Cc4cc5cccnc5s4)cn23)cc1 (mixture of isomers) — inhibition (TDP1; enzyme activity, inhibitor; 100 µM, unpurified compound): 29.5%
COc1cccc(NC(=O)N2CCOc3ccccc32)c1 — inhibition (Uncharacterized protein; enzyme activity, inhibitor, coupled colorimetric; 30 µM, added: E. coli pyrophosphatase coupling): 30.4%
C[Si](C)(C)C[C@@H](CN)CC(=O)O — inhibition (CCKAR; ligand displacement, radioligand; 75 µM): 11%
Brc1ccccc1-c1nnc(CSc2nnnn2-c2ccccc2)o1 — inhibition (sigma receptor 1; radioligand binding; 10 µM): 8%
COc1ccc(OC)c(C2=Nn3c(nnc3C3CCCCC3)SC2)c1 — inhibition (Uncharacterized protein; enzyme activity, inhibitor, coupled colorimetric; 30 µM, added: E. coli pyrophosphatase coupling): 37.4%
CN1CCCNC(=O)c2cccc(c2)C(=O)NCCCN(C)CCCNc2cccc3c2C(=O)c2cccc(c2C3=O)NCCC1 — log2 fold change (SAS; RNA-Seq, item: PNN mRNA; 5 µM, 24 h; reference: untreated cells): 0.0631
C[N+](C)(C/C=C/CN1C(=O)c2ccccc2C1=O)CCCN1c2ccccc2CCc2ccc(Cl)cc21 — inhibition (Uncharacterized protein; enzyme activity, inhibitor, coupled colorimetric; 30 µM, added: E. coli pyrophosphatase coupling): 38.6%
CC(=NOCc1ccc(-c2nc3cc(-c4ccccc4)ccn3c2Nc2ccc(C(=O)O)cc2)cc1)c1ccccc1O — inhibition (TDP1; enzyme activity, inhibitor; 100 µM, unpurified compound): 59.4%
COc1cc(C2NCCc3cc(O)c(O)cc32)cc(OC)c1OC (stereo not shown) — inhibition (tyrosinase; enzyme activity, inhibitor; 100 µM, added: levodopa): 13.4 ± 0.69%
C[Si]1(C[C@H](CN)CC(=O)O)CCCC1 — inhibition (CCKAR; ligand displacement, radioligand; 70 µM): -3%
CS(=O)(=O)Nc1cccc(-c2csc3cnc(Nc4ccc(N5CCN(CCCCCOc6cccc7c6C(=O)N(C6CCC(=O)NC6=O)C7=O)CC5)cc4)nc23)c1 (stereo not shown) — inhibition (MAP3K21; probe labelling, inhibitor, KiNativ chemoproteomics; MOLT-4; 1 µM): 32.4%
Cc1ccc(C=NOCc2ccc3nc(-c4ccccc4)c(Nc4ccc(C(=O)O)cc4)n3c2)cc1C (mixture of isomers) — inhibition (TDP1; enzyme activity, inhibitor; 100 µM, unpurified compound): 22.7%
O=C(Nc1cccc(C(F)(F)F)c1)c1ccc2nc(N3C(=O)c4ccccc4C3=O)sc2c1 — inhibition (Potassium channel subfamily T member 1 (KCNT1, Homo sapiens, UniProt Q5JUK3); ion current, inhibitor, patch clamp; HEK293; 10 µM): > 40%
Cn1c(-c2ccc(C=NOCc3ccc(-c4nc5cc(-c6ccccc6)ccn5c4Nc4ccc(C(=O)O)cc4)cc3)s2)nc2ccccc21 — inhibition (TDP1; enzyme activity, inhibitor; 100 µM, unpurified oxime): 96.9%
O=C(CSc1nnc(-c2ccco2)c(-c2ccco2)n1)c1ccc(Cl)s1 — inhibition (ppa; inhibitor, counter-screen, coupling enzyme alone; 30 µM): 6.7%
COc1ncc2nc(C)n(Cc3ncc(S(N)(=O)=O)cc3F)c2c1-c1ccccc1 — inhibition (Voltage-dependent L-type calcium channel subunit alpha-1C (CACNA1C, Homo sapiens, UniProt Q13936); antagonist, cell-based; 10 µM): 2.78%
O=c1c(O)ccc(-c2cnc3ccccc3c2)cc1O — CC50 (HepDES19; cell growth or viability, MTS; 72 h): 16.9 µM
CCC(=O)N(C)c1ccc(Cl)c(Cl)c1 — inhibition (Nociceptin receptor (OPRL1, Homo sapiens, UniProt P41146); ligand displacement, radioligand; 10 µM): < 10%
COc1ccc2c(c1OC)C(=O)N(c1nc3ccccc3s1)C2 — inhibition (ppa; inhibitor, counter-screen, coupling enzyme alone; 30 µM): -4%
O=C(O)c1ccc(Nc2c(-c3ccc(CON=CC=Cc4cn(Cc5ccccc5)nn4)cc3)nc3cc(-c4ccccc4)ccn23)cc1 — inhibition (TDP1; enzyme activity, inhibitor; 100 µM, unpurified compound): 59.1%
O=C1c2sc(-c3ccc(N4CCC(F)C4)nc3F)nc2CCN1c1cccnc1 (stereo not shown) — inhibition (Prostacyclin receptor (PTGIR, Homo sapiens, UniProt P43119); ligand displacement, radioligand; 1 µM): 7%
CN(Cc1ccc(/C=C/C(=O)NO)cc1)CC12CC3CC(CC(C3)C1)C2 — inhibition (MMP-2; enzyme activity; 0.05 µM): 5%
CCCCCC(O)/C=C/C=O (stereo not shown) — isoTOP-ABPP competition ratio (Histone H3.2 (H3C15, Homo sapiens, UniProt Q71DI3); competitive isoTOP-ABPP, item: HIST2H3C cysteine peptide; proteome, soluble, MDA-MB-231; 100 µM, added: iodoacetamide probe; reference: DMSO over compound-treated, higher = stronger cysteine blockade): 1.8
CCNc1sc(C(C)=O)c(N)c1C#N — inhibition (Uncharacterized protein; enzyme activity, inhibitor, coupled colorimetric; 30 µM, added: E. coli pyrophosphatase coupling): 36.2%
C=CC(=O)N1Cc2nc(-c3cc(-c4cc(Cl)cnc4Cl)c(F)cc3F)n(-c3ccncn3)c2C1 — inhibition (MAP3K21; cell-free assay, inhibitor; 1 µM): 1.1%
Cc1cc(Cl)cc(-c2ccnc3cc(CN4C(=O)C5C(C4=O)C5(C)C)sc23)c1C[C@@H]1CNCCO1 (stereo partly shown) — inhibition (Ubiquitin carboxyl-terminal hydrolase 7 (USP7, Homo sapiens, UniProt Q93009); enzyme activity, inhibitor; 50 µM): 100% and 102%
O=C(O)c1ccc(Nc2c(-c3ccc(CON=Cc4ccc(-n5ccnc5)cc4)cc3)nc3cc(-c4ccccc4)ccn23)cc1 — inhibition (TDP1; enzyme activity, inhibitor; 100 µM, unpurified compound): 77.5%
COCc1cc(O)c(=O)c(O)c(C(=O)OC)c1C(=O)OC — CC50 (HepDES19; cell growth or viability, MTS; 72 h): 112 µM
COCC(=O)N1CCc2cc(-c3csc(NC(=O)c4cc(OC)cc(OC)c4)n3)ccc21 — inhibition (Adra1a; ligand displacement, radioligand; 10 µM): 3%
CC1=NN(c2cccc(F)c2)C(=O)/C1=N\Nc1ccc(S(N)(=O)=O)cc1 — inhibition (bovine α-glucosidase; enzyme activity, inhibitor, glucose oxidase; 500 µg/mL, added: maltose): 40.3%
COc1ccc(NC2(C#N)C(=O)Nc3ccccc32)cc1 (stereo not shown) — inhibition (ppa; inhibitor, counter-screen, coupling enzyme alone; 30 µM): 49.2%
Oc1cc2c(cc1O)C(c1ccc3[nH]ccc3c1)NCC2 (stereo not shown) — inhibition (tyrosinase; enzyme activity, inhibitor; 100 µM, added: levodopa): 33 ± 1.3%
CN(C)c1nc(NCc2ccc(-c3ccccc3)cc2)c(/N=N/c2ccc(Cl)cc2)c(N(C)C)n1 — inhibition (OfChi-h; enzyme activity, inhibitor, fluorescence; 1 µM): 88.1%
COc1cc(-n2cc3cc(F)cc(C(N)=O)c3n2)cc(Cl)c1C1CC(O)(CCO)Cc2ccccc21 (stereo not shown) — inhibition (Protein mono-ADP-ribosyltransferase PARP8 (Homo sapiens, UniProt Q8N3A8); enzyme activity, inhibitor; 10 µM): 1.09%
Cc1ncsc1-c1ccc(C(C)NC(=O)C2CC(O)CN2C(=O)C(NC(=O)CCCCCCCCCCN2CCCC(Nc3ncc(Cl)c(Nc4ccccc4S(=O)(=O)C(C)C)n3)C2)C(C)(C)C)cc1 (stereo not shown) — log2 fold change (22Rv1; RNA-seq, item: MOB3C mRNA; concentration not given; reference: DMSO): -1.58
Oc1cc2c(cc1O)C(c1ccccc1)NCC2 (stereo not shown) — inhibition (tyrosinase; enzyme activity, inhibitor; 100 µM, added: levodopa): 25.2 ± 1.48%
CCCC[C@H](NC(=O)CCCCCCCNC(=O)CN1CCN(CC(=O)O)CCN(CC(=O)O)CC1)C(=O)N[C@H]1CC(=O)NCCCC[C@@H](C(N)=O)NC(=O)[C@H](Cc2c[nH]c3ccccc23)NC(=O)[C@H](CCCNC(=N)N)NC(=O)[C@@H](Cc2ccccc2)NC(=O)[C@H](Cc2c[nH]cn2)NC1=O [technetium-99m labelled] — tissue uptake (C57 mouse, intestine; intravenous, 0.037 MBq, 2 h): 26.7 ± 1.24 %ID
CC1=NN(c2ccccc2F)C(=O)/C1=N\Nc1ccc(S(N)(=O)=O)cc1 — inhibition (bovine α-glucosidase; enzyme activity, inhibitor, glucose oxidase; 200 µg/mL, added: maltose): 42.6%
Cc1nc2c(F)cc(-c3nc(Nc4ccc(CNC(=O)CCCCCCC(=O)NO)cc4)ncc3F)cc2n1C(C)C — inhibition (Phosphatidylinositol 4-phosphate 3-kinase C2 domain-containing subunit alpha (PIK3C2A, Homo sapiens, UniProt O00443); enzyme activity, inhibitor; 1 µM): 3%
Cc1cc(C=NOCc2ccc3nc(-c4ccccc4)c(Nc4ccc(C(=O)O)cc4)n3c2)sc1C — inhibition (TDP1; enzyme activity, inhibitor; 100 µM, unpurified compound): 17.2%
CNS(=O)(=O)Nc1nccc(Cc2c(C)c3ccc(Oc4ncccc4F)cc3oc2=O)c1F — IC50 (AGS; cell viability; 7 days): 0.00965 µM
Cc1cc[n+](-c2nc([O-])sc2C=NOCc2ccc3nc(-c4ccccc4)c(Nc4ccc(C(=O)O)cc4)n3c2)cc1 — inhibition (TDP1; enzyme activity, inhibitor; 100 µM, unpurified compound): -10.6%
Cc1[nH]nc2c1N=C(c1ccccc1Cl)c1cnc(N3CCOCC3)cc1N2 — inhibition (Adra1a; cell-free assay; 10 µM): -3%
O=C(CN1CCO[C@@H](COc2cccc(Cl)c2)C1)N1CCc2ccccc21 — inhibition (5-hydroxytryptamine receptor 4 (HTR4, Homo sapiens, UniProt Q13639); radioligand binding; concentration not given): 7.6%
CN(C)c1nc(NCc2ccc(F)c(C(F)(F)F)c2)c(/N=N/c2ccc(Cl)cc2)c(N(C)C)n1 — inhibition (OfChi-h; enzyme activity, inhibitor, fluorescence; 1 µM): 85.1%
COC1CN([C@H]2CC[C@H]([C@@]3(C)Oc4c(Cl)cc(C(=O)NCc5c(SC)cc(C)[nH]c5=O)c(C)c4O3)CC2)C1 — log2 fold change (RNA-seq, item: TMCC2; human, whole blood; dose not given, 24 h; reference: pretreatment baseline): 2.21
CN(C)C/C=C/C(=O)Nc1ccc2nc(NCCCCCN(C)C)nc(NCCCCCCN(C)C)c2c1 — inhibition (Histone-lysine N-methyltransferase EHMT1 (EHMT1, Homo sapiens, UniProt Q9H9B1); enzyme activity, inhibitor, radiometric; 50 µM): 84%
O=C1c2sc(-c3ccc(N4CCC(CO)CC4)nc3F)nc2CCN1c1cccnc1 — inhibition (GABA-A receptor; GABA-A site (alpha1/beta2 interface), with gamma-2 subunit (Homo sapiens, UniProt P14867+P47870); radioligand binding; 1 µM, added: agonist radioligand): -9%

For quick reference, copied from above:
CN(C)c1nc(NCc2ccc(-c3ccccc3)cc2)c(/N=N/c2ccc(Cl)cc2)c(N(C)C)n1 — inhibition (OfChi-h; enzyme activity, inhibitor, fluorescence; 1 µM): 88.1%
COc1cc(-n2cc3cc(F)cc(C(N)=O)c3n2)cc(Cl)c1C1CC(O)(CCO)Cc2ccccc21 (stereo not shown) — inhibition (Protein mono-ADP-ribosyltransferase PARP8 (Homo sapiens, UniProt Q8N3A8); enzyme activity, inhibitor; 10 µM): 1.09%
Cc1ncsc1-c1ccc(C(C)NC(=O)C2CC(O)CN2C(=O)C(NC(=O)CCCCCCCCCCN2CCCC(Nc3ncc(Cl)c(Nc4ccccc4S(=O)(=O)C(C)C)n3)C2)C(C)(C)C)cc1 (stereo not shown) — log2 fold change (22Rv1; RNA-seq, item: MOB3C mRNA; concentration not given; reference: DMSO): -1.58
Oc1cc2c(cc1O)C(c1ccccc1)NCC2 (stereo not shown) — inhibition (tyrosinase; enzyme activity, inhibitor; 100 µM, added: levodopa): 25.2 ± 1.48%
CCCC[C@H](NC(=O)CCCCCCCNC(=O)CN1CCN(CC(=O)O)CCN(CC(=O)O)CC1)C(=O)N[C@H]1CC(=O)NCCCC[C@@H](C(N)=O)NC(=O)[C@H](Cc2c[nH]c3ccccc23)NC(=O)[C@H](CCCNC(=N)N)NC(=O)[C@@H](Cc2ccccc2)NC(=O)[C@H](Cc2c[nH]cn2)NC1=O [technetium-99m labelled] — tissue uptake (C57 mouse, intestine; intravenous, 0.037 MBq, 2 h): 26.7 ± 1.24 %ID
